Measurements pooled from the literature.
Parts stem from different laboratories: compare values within a part only. Positions count from the first letter of the parent shown.

Study 1 — method: protein binding microarray; form: double-stranded DNA, one strand shown; medium: in vitro; concentration: not given; relative to: not given; direction: higher = stronger binding; endpoint: E-score
Target: Histone acetyltransferase KAT6A, both winged helices, GST fusion (KAT6A, Homo sapiens, UniProt Q92794, residues 1-181)
Notes: 8-mer, flanks averaged, mean of 2 arrays, mostly near background
Target sequence (chain): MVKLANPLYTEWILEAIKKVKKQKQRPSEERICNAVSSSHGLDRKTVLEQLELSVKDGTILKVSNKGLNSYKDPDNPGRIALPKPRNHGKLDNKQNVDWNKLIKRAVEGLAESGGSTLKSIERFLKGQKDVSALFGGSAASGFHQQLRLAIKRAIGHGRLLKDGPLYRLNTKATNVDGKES
CGCAATTA: 0.283
GCGAGAGA: -0.0182
TGCATGCA: 0.0801
CAGGTATC: -0.0736
ATCTAATA: -0.0438
CTGTTAAC: 0.0209

Study 2 — target: CCNA1, cyclin fold, Cln2 fusion (human); method: yeast growth competition, sequencing; medium: yeast; notes: weak parent motif; relative to: not given; direction: higher = stronger binding; endpoint: normalised enrichment score
Parent: WEE1 docking peptide (human); HKTFRKLRLFDTP; partner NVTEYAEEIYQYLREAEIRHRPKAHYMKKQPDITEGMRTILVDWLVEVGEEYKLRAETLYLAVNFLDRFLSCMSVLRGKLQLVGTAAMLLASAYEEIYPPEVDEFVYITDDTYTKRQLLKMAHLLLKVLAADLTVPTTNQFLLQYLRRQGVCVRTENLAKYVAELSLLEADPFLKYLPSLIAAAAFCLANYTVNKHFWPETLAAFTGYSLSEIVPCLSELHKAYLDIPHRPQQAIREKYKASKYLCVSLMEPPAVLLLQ
F4H: 0.408
T12L: 0.291
R8M: 0.424
F10L: 0.0135

Study 3 — method: RNA Bind-n-Seq; form: RNA; medium: in vitro; concentration: 200 nM; notes: whole 134-nt RNA, ends assumed; added: 150 mM KCl; relative to: input library; direction: higher = stronger binding; endpoint: log2 enrichment
Target: Fragile X messenger ribonucleoprotein 1, C-terminal low-complexity region (Fmr1, Mus musculus, UniProt P35922)
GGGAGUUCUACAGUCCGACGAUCUAACUUUAGAGGAGGAUCUGAUGGAUAUGGCAGUGGACGUGGAUUUGGGGAUGGCUAUCAUGGGUAUGGAGGAGGACCUGGAGGUGGCAAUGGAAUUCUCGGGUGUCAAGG: 0.258
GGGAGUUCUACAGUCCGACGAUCCCUCAAGUCCUGUGCUACACAUCGUAUGUACCGAAUCGGUGGGGUGGGGUGGAAAGUAUUAUGUUACGCCGUUCGGAUCUGCACUUCCAGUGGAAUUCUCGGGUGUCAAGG: 0.427
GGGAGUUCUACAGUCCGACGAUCUUUAAGAGCAGCCAGGGAGAUAGUGGCGUUGACUUGAGUGCCGAGUCUCGGGAGUCGUCUGCGACCUCCUCGCAGCGCAGCUCCCCAUAUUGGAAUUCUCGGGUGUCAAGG: 0.687
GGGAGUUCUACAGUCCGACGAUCUCAAGUCCUGUGCUACACAUCGUAUGUACCGAAUCGGGAAAGGGUUUGGGUGGGAAAGUAUUAUGUUACGCCGUUCGGAUCUGCACUUCCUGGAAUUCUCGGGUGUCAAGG: 1.28
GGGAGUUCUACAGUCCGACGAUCUCCUGUGCUACACAUCGUAUGUACCGAAUCGGGGAAAAAGGGGAAAGGGGUUUUUGGGGAAAGUAUUAUGUUACGCCGUUCGGAUCUGCAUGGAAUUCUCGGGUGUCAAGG: 0.701
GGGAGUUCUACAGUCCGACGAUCCACAGACAACACGCACCCACACCGACACAGAGGGAAGGGGUUGGGAUGGGGACAGGGUGCACAGCAGGGCGGGGUAGGACCCCAGCCCCUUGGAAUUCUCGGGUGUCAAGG: 1.36
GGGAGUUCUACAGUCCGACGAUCUAGCAUAUUGCCUUGUUCACUACCGAGGAGAUGAGAAGAUUAAAGGUUUCAUAUGGGAUCUCAUUACUCCAACUGAAGAUGGACAGACACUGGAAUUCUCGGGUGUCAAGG: 0.196
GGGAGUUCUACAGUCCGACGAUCUCAAGUCCUGUGCUACACAUCGUAUGUACCGAAUCGGGAAAGGGAAAGGAAAGGAAAGUAUUAUGUUACGCCGUUCGGAUCUGCACUUCCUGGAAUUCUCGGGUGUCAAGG: -0.692

Other studies, line by line
PhoQ, residues 284 288 289 292 302 303 SSTLLI
fold induction (PhoP, residues 12 14 15 18 19 DLLYY (Escherichia coli, UniProt P23836); Sort-seq, item: YFP reporter; E. coli; PhoQ-PhoP variant library, added: 10 µM Mg2+; relative to: high Mg2+ state, higher = stronger signaling): 1.08

Excerpt of the above (study 3):
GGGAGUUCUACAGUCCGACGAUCUCAAGUCCUGUGCUACACAUCGUAUGUACCGAAUCGGGAAAGGGUUUGGGUGGGAAAGUAUUAUGUUACGCCGUUCGGAUCUGCACUUCCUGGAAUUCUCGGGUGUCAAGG: 1.28
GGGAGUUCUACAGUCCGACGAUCUCCUGUGCUACACAUCGUAUGUACCGAAUCGGGGAAAAAGGGGAAAGGGGUUUUUGGGGAAAGUAUUAUGUUACGCCGUUCGGAUCUGCAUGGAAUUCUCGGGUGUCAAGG: 0.701
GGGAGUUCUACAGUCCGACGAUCCACAGACAACACGCACCCACACCGACACAGAGGGAAGGGGUUGGGAUGGGGACAGGGUGCACAGCAGGGCGGGGUAGGACCCCAGCCCCUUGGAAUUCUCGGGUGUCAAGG: 1.36
